Measurements pooled from the literature.
Lines come from different studies, so protocols differ.
RET: Proto-oncogene tyrosine-protein kinase receptor Ret (RET, Homo sapiens, UniProt P07949)
Chain of UniProt P07949 (whole entry, unmodified, looked up): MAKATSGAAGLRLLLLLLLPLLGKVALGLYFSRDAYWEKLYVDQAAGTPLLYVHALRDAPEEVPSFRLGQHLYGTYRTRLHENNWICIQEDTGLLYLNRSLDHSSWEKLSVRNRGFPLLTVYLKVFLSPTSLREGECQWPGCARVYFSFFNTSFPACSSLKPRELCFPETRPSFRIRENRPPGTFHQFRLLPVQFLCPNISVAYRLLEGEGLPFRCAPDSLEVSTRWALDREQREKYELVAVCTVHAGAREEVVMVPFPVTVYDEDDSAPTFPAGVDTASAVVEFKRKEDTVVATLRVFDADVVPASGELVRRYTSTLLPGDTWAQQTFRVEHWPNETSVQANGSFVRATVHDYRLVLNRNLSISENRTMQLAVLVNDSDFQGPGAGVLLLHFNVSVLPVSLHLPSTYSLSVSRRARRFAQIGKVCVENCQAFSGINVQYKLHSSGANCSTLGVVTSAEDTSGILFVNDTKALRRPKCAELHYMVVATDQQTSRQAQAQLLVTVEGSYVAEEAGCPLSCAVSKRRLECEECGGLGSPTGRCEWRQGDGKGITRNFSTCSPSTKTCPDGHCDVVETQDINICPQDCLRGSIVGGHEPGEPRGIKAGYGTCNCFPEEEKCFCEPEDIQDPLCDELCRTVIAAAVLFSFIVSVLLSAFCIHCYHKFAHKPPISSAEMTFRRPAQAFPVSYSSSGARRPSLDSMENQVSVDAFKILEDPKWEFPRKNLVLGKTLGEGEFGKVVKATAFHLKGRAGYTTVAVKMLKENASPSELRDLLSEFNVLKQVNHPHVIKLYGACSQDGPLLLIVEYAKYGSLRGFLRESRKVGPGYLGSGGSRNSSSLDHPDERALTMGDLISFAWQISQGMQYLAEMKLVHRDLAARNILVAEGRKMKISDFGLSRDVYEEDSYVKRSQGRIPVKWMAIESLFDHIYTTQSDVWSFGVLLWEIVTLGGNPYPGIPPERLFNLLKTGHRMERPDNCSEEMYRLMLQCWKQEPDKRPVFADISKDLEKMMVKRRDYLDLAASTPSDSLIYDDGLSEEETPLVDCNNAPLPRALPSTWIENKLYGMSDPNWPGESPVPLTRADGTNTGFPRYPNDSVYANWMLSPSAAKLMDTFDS

Structure (SMILES) | target | test | conditions | how to read | measurement | result
CC(C)[C@H]1NC(=O)C[C@H]2/C=C/CCSSC[C@@H](NC1=O)C(=O)N[C@H](Cc1cccc3ccccc13)C(=O)NCC(=O)O2 | RET (Homo sapiens, UniProt P07949, S891A) | enzyme activity, inhibitor | 10 µM |  | inhibition | -3.8%
CS(C)(=O)=Nc1ccc(-c2ccc(-c3nc4cc(O[C@@H]5CO[C@H]6[C@@H]5OC[C@H]6O)[nH]c4cc3F)cc2)cc1 | RET | enzyme activity, inhibitor | 10 µM |  | inhibition | 12%
C[C@H](NCc1ccc(-c2ccc(C(F)(F)F)cc2)cc1)C(N)=O | RET | cell-free assay, competition with immobilised ligand | 1 µM |  | inhibition | 13%
O=C1NC(=O)c2c1c1cc(F)c[n+]3c1c1c2c2cc(O)ccc2[n]1[Ru-4]312([N]=C=S)[S+]3CC[S+]1CC[S+]2CC3 (centres unmarked) | RET | enzyme activity | 100 nM, human enzyme, together with: 10 µM ATP | baseline: untreated | remaining activity | 9%
CN(/N=C/c1ccccc1C(=O)O)c1nc(-c2ccccc2Cl)cs1 | RET | enzyme activity, inhibitor | 1 µM |  | inhibition | -8.14%
Nc1ccc(/C=C/C(=O)N2CCc3c(oc4c(-c5ccc(F)cc5)cc(-c5ccc(C(=O)N6CCC(F)(F)CC6)cn5)cc34)C2)cn1 | RET | binding, competition with immobilised ligand | 1 µM |  | remaining binding | 96%
O=C(N[C@@H]1c2ccccc2C[C@H]1N1CCCC1)c1ccc(-c2ccnc3[nH]ccc23)nc1 | RET | binding, competition with immobilised ligand | 3 µM |  | remaining binding | 9%
CCOC(=O)[C@@H]1Cc2c(cc([N+](=O)[O-])cc2[N+](=O)[O-])[C@H](O)[C@]12C(=O)Nc1ccc(Br)cc12 | RET | binding, competition with immobilised ligand | 0.1 µM |  | remaining binding | 40%

Excerpt of the above:
Structure (SMILES) | target | test | conditions | how to read | measurement | result
O=C1NC(=O)c2c1c1cc(F)c[n+]3c1c1c2c2cc(O)ccc2[n]1[Ru-4]312([N]=C=S)[S+]3CC[S+]1CC[S+]2CC3 (centres unmarked) | RET | enzyme activity | 100 nM, human enzyme, together with: 10 µM ATP | baseline: untreated | remaining activity | 9%
